{"data": "Measurements collected from several papers", "note": "Each numbered part is a random draw from the data of one study; scales do not carry over between parts."}
{"data": "Set 1", "target": "Histone acetyltransferase KAT6A, both winged helices, GST fusion (KAT6A, Homo sapiens, UniProt Q92794, residues 1-181)", "method": "protein binding microarray", "molecule type": "double-stranded DNA, one strand shown", "sample": "in vitro", "tested at": "not given", "setting": "8-mer, flanks averaged, mean of 2 arrays, mostly near background", "baseline": "not given", "reading": "higher = stronger binding", "Construct (chain)": "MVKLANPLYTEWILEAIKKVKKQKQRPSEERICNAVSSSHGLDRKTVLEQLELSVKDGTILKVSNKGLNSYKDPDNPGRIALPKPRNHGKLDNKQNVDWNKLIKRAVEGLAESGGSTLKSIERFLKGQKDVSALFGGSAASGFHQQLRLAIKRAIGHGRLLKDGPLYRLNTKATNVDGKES"}
{"Sequence": "TAACGGTA", "E-score": 0.121}
{"Sequence": "CGGCGAGA", "E-score": 0.233}
{"Sequence": "CGCTAATC", "E-score": 0.153}
{"Sequence": "GCAACTGA", "E-score": 0.0701}
{"Sequence": "ACATAGCC", "E-score": -0.0516}
{"Sequence": "GAGGAAGC", "E-score": -0.0193}
{"data": "Set 2", "target": "Ras GTPase-activating protein-binding protein 1, RRM domain (G3BP1, Homo sapiens, UniProt Q13283)", "method": "RNA Bind-n-Seq", "molecule type": "RNA", "sample": "in vitro", "tested at": "1 µM", "setting": "whole 134-nt RNA, ends assumed", "added": "150 mM KCl", "baseline": "input library", "reading": "higher = stronger binding", "shared flanks, not repeated": "GGGAGUUCUACAGUCCGACGAUC … UGGAAUUCUCGGGUGUCAAGG", "chain of UniProt Q13283 (whole entry, looked up)": "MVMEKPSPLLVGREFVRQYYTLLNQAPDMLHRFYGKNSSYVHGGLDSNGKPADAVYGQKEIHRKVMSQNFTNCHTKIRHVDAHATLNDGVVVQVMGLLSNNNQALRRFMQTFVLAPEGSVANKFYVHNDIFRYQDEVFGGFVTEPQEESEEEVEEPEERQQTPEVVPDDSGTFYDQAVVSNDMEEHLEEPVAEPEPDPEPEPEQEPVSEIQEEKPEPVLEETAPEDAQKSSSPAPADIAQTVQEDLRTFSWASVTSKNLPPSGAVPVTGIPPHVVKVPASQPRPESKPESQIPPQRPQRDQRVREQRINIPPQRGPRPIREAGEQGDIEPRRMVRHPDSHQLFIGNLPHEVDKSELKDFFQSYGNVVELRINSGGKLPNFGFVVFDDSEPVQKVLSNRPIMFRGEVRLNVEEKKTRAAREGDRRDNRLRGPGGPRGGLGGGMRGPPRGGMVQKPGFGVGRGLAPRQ"}
{"Sequence": "GCAGGAAGUAAAAACAAAUGGAAAUGCUUCGGAUAGUGGCAGGGGUGGGGGUUGCUAAGGAAAGGGUGGGAUGGGAGUGGGUAAAGGGUU", "log2 enrichment": 0.807}
{"Sequence": "GCAGGAAGUAAAAACAAAUGGAAAUGCUUCGGAUAGUGGAAGGGGUGGGGGUUGCUAAGGAAAGGGUGGGAUGGGAGUGGGUAAAGAGUU", "log2 enrichment": 0.821}
{"Sequence": "AAGUCCUGUGCUACACAUCGUAUGUACCGAAUCGGGUUUGGGUUUUUGGGAAAGGGAAAGUAUUAUGUUACGCCGUUCGGAUCUGCACUU", "log2 enrichment": 0.665}
{"Sequence": "GUCCUGUGCUACACAUCGUAUGUACCGAAUCGGGGUUUGGGGUUUGGGGAAAAAGGGGAAAGUAUUAUGUUACGCCGUUCGGAUCUGCAC", "log2 enrichment": 1.66}
{"Sequence": "UUCGACGGCGCCGGGCGAGUGGCUGUUGAGCGGCGCCGCGGGAGUUCCGCAGGUUUCCCGUGUUCGCAGCGGAGCCGGAGGCCAGCUGAA", "log2 enrichment": -1.03}
{"data": "Set 3", "target": "Sal-like protein 4, full length isoform A (SALL4, Homo sapiens, UniProt Q9UJQ4, residues 1-1053)", "method": "universal PBM", "molecule type": "double-stranded DNA, one strand shown", "sample": "in vitro", "tested at": "600 nM", "setting": "8-mer, flanks averaged, mean of replicates", "reading": "higher = stronger binding", "chain of UniProt Q9UJQ4 (whole entry, looked up)": "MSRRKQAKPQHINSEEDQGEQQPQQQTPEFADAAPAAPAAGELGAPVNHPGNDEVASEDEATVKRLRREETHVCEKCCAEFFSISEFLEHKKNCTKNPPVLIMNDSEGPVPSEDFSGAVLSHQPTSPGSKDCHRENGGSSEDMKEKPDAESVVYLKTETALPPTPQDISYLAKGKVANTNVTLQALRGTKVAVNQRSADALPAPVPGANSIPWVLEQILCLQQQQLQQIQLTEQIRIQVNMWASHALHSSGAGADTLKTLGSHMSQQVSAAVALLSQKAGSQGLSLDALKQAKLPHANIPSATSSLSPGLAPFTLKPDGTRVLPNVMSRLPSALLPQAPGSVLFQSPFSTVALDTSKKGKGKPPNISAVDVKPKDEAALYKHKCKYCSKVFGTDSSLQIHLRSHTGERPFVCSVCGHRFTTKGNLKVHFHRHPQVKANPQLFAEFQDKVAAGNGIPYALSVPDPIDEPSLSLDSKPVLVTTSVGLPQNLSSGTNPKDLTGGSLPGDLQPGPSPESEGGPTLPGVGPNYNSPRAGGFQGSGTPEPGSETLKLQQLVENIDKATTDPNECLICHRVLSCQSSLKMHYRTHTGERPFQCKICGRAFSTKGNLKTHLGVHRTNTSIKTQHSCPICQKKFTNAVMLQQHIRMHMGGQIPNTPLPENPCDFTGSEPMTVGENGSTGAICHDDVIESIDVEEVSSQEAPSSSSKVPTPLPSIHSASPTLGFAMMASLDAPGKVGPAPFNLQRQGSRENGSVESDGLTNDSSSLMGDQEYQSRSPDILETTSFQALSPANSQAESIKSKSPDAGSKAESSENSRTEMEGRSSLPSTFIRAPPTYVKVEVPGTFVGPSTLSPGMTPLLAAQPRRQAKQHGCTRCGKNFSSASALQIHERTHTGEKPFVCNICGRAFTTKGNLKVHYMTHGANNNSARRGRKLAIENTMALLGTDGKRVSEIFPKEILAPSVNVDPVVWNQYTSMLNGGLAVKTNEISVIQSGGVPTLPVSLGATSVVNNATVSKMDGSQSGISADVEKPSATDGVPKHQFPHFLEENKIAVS"}
{"Sequence": "GCTGAGAA", "E-score": -0.185}
{"Sequence": "CAACCTTA", "E-score": 0.106}
{"Sequence": "GGGAATAC", "E-score": 0.00347}
{"Sequence": "CAGTCGAG", "E-score": -0.163}
{"Sequence": "GGCCCCGA", "E-score": -0.376}
{"data": "Other studies, line by line"}
{"Substance": "PhoQ, residues 284 288 289 292 302 303 SVHLDV", "target": "PhoP, residues 12 14 15 18 19 LWHCS (Escherichia coli, UniProt P23836)", "test": "Sort-seq, measured: YFP reporter", "system": "E. coli", "setting": "PhoQ-PhoP variant library, added: 10 µM Mg2+", "scale": "baseline: high Mg2+ state, higher = stronger signaling", "measurement": "fold induction", "value": 1.28}
{"note": "Some of these lines once more (set 2):"}
{"Sequence": "GCAGGAAGUAAAAACAAAUGGAAAUGCUUCGGAUAGUGGCAGGGGUGGGGGUUGCUAAGGAAAGGGUGGGAUGGGAGUGGGUAAAGGGUU", "log2 enrichment": 0.807}
